Values quoted from earlier work, collected from citations in different studies.
Each line is one published result; not all experiments were run side by side. ± gives the spread as reported.

| Compound | tested on | assay | system | conditions | quantity | value |
| --- | --- | --- | --- | --- | --- | --- |
| O=C1NC(=O)C(=Cc2c[nH]c3ccc(OCc4ccccc4)cc23)S1 | Mycobacterium tuberculosis | – | H37Rv | – | MIC | 1.55 µM |
| C[C@H]1c2cccc(O)c2C(=O)C2=C(O)[C@]3(O)C(=O)C(C(N)=O)=C(O)[C@@H](N(C)C)[C@@H]3[C@@H](O)[C@@H]21 | Mycobacterium tuberculosis | – | H37Ra | – | MIC | 1 mg/L |
| COc1cc(C=C2SC(=O)N(CCC(=O)NNC(=O)c3ccncc3)C2=O)cc(OC)c1OC | Mycobacterium tuberculosis | – | H37Rv | – | MIC | 1.55 µM |
| O=c1ccc2ncc(=O)n3c2n1C[C@H]3CN1CCC(NCc2cc3c(cn2)OCCC3)CC1 | Mycobacterium tuberculosis | – | H37Rv wild type | – | MIC | 0.5 mg/L |
| COC(=O)[C@@H]1C[C@H](OC(C)=O)C(=O)[C@H]2[C@@]1(C)CC[C@H]1C(=O)O[C@H](c3ccoc3)C[C@]21C | kappa opioid receptor Q213A | – | – | – | Ki | 0.04 ± 0.012 µM |
| CCCCCOc1ccc(-c2ccc(-c3ccc(C(=O)N[C@H]4C[C@@H](O)[C@@H](O)NC(=O)[C@@H]5[C@@H](O)[C@@H](C)CN5C(=O)[C@H]([C@@H](C)O)NC(=O)[C@H]([C@H](O)[C@@H](O)c5ccc(O)cc5)NC(=O)[C@@H]5C[C@@H](O)CN5C(=O)[C@H]([C@@H](C)O)NC4=O)cc3)cc2)cc1 | – | – | human, invasive aspergillosis patients | dose not given, typical value | peripheral volume of distribution | 34.1 L |
| CCCCc1ccc(NC(=O)C2=CCN(C)[C@@H]([C@H](O[C@@H]3O[C@H](CN)[C@@H](O)[C@H]3O)[C@H]3O[C@@H](n4ccc(=O)[nH]c4=O)[C@H](O)[C@@H]3O)C(=O)N2C)cc1 | Mycobacterium | – | – | – | MIC | 0.2 to 1.56 mg/L |
| NC(=O)c1ncn([C@@H]2O[C@H](CO)[C@@H](O)[C@H]2O)n1 | Influenza A virus H1N1 | – | – | – | EC50 | 20.1 ± 2.1 µM |
| CC(C)(C)[C@H](NC(=O)C(F)(F)F)C(=O)N1C[C@H]2[C@@H]([C@H]1C(=O)N[C@H](C#N)C[C@@H]1CCNC1=O)C2(C)C | human coronavirus 229E | – | MRC5 | concentration not given | viral cytopathic effect | inhibited |
| CO[C@@H]1[C@@H](OC(N)=O)[C@@H](O)[C@H](Oc2ccc3c(O)c(NC(=O)c4ccc(O)c(CC=C(C)C)c4)c(=O)oc3c2C)OC1(C)C | Mycobacterium tuberculosis | – | H37Ra | – | MIC | 1.5 mg/L |
| COc1cccc2c3c(=O)n(C4C5(C)CCC(C5)C4(C)C)ccc3n(CCN3CCOCC3)c12 (stereo not shown) | CB2 receptor | binding | – | – | Ki | 0.001 µM |
| CC[C@H]1OC(=O)[C@H](C)[C@@H](O[C@H]2C[C@@](C)(OC)[C@@H](O)[C@H](C)O2)[C@H](C)[C@@H](O[C@@H]2O[C@H](C)C[C@H](N(C)C)[C@H]2O)[C@](C)(OC)C[C@@H](C)C(=O)[C@H](C)[C@@H](O)[C@]1(C)O | Mycobacterium tuberculosis | – | H37Ra | – | MIC | 16 mg/L |
| O=C(O)C(F)(F)C(F)(F)C(F)(F)C(F)(F)C(F)(F)C(F)(F)F | CYP3A4 | inhibitor | – | Tox21 screening | IC50 | inactive |

For quick reference, copied from above:
| Compound | tested on | assay | system | conditions | quantity | value |
| --- | --- | --- | --- | --- | --- | --- |
| CCCCCOc1ccc(-c2ccc(-c3ccc(C(=O)N[C@H]4C[C@@H](O)[C@@H](O)NC(=O)[C@@H]5[C@@H](O)[C@@H](C)CN5C(=O)[C@H]([C@@H](C)O)NC(=O)[C@H]([C@H](O)[C@@H](O)c5ccc(O)cc5)NC(=O)[C@@H]5C[C@@H](O)CN5C(=O)[C@H]([C@@H](C)O)NC4=O)cc3)cc2)cc1 | – | – | human, invasive aspergillosis patients | dose not given, typical value | peripheral volume of distribution | 34.1 L |
